Measurements from different studies.
Parts stem from different laboratories: compare values within a part only. Substitutions count along the parent as printed.

Block 1
Target: ABI1, truncated, D143A, DHFR fusion (Arabidopsis thaliana)
Technique: DHFR PCA, deep sequencing
Medium: yeast
Setting: methotrexate growth selection, single substitutions
With: (+)-ABA 17 µM
Relative to: wild-type fitted maximum
Reading: higher = stronger binding
Starting sequence: PYL1, truncated, DHFR fusion (Arabidopsis thaliana); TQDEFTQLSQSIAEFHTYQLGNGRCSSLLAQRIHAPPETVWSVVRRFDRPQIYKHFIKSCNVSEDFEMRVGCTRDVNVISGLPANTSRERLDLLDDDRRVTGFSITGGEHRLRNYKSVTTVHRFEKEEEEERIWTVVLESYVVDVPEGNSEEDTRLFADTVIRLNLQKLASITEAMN; partner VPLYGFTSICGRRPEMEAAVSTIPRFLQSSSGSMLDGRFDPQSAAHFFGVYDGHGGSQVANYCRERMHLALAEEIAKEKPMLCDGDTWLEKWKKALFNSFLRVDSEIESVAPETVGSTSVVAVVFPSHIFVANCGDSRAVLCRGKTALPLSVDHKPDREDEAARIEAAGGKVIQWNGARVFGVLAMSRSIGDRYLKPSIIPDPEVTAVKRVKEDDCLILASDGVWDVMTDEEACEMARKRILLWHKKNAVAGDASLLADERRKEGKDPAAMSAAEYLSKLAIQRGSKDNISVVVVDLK
| Change | relative binding score |
| --- | --- |
| Q2G | 69.5% |
| E130N | 82.2% |
| S150D | 70% |
| H122R | 2.03% |
| L93K | 71.1% |
| L8T | 42.2% |
| N177P | 37.7% |
| H122F | -2.12% |
| K116M | 16.7% |
| V136S | 10.7% |
| L8D | -12.9% |
| H122K | 9.87% |
| N165R | -0.166% |
| F47I | 7.82% |
| C60H | 9.44% |
| S11A | 82.8% |
| R99G | 38.7% |
| E139R | 1.28% |
| I133D | 110% |
| L91C | 48.1% |
| W134K | 59.5% |

Block 2
Target: CCNE2, cyclin fold, Cln2 fusion (human)
Technique: yeast growth competition, sequencing
Medium: yeast
Setting: weak parent motif
Relative to: not given
Reading: higher = stronger binding
Starting sequence: CDC6 docking peptide (human); TLKGRRLVFDNQL
| Change | normalised enrichment score |
| --- | --- |
| R5W | -0.0342 |
| L13A | 0.423 |
| L7P | -0.0106 |
| D10A | -0.0931 |
| Q12W | 1.04 |
| L13M | -0.0353 |
| F9I | 0.846 |
| K3Q | 0.531 |
| V8R | 1.28 |
| Q12Y | 0.899 |
| R5N | -0.0277 |
| T1K | 0.468 |
| D10F | 1.05 |
| L2S | -0.805 |
| T1R | 0.4 |
| Q12F | 0.944 |
| N11G | 0.549 |
| N11I | 0.163 |
| L7E | 0.289 |
| L7D | -0.00959 |
| L2I | 0.514 |
| R5K | -0.0345 |
| T1V | 0.871 |
| T1P | 0.857 |
| G4C | 1.05 |

Block 3
Target: Interferon regulatory factor 7, full length, phosphomimetic (IRF7, Homo sapiens, UniProt Q92985, residues 1-503, S101K/S471D/S472D/S475D/S476D/S477D/S483D/S484D/S487D)
Technique: protein-binding microarray
Form: double-stranded DNA, one strand shown
Medium: in vitro
Concentration: 250 nM
Setting: 60-bp whole probe
With: salmon DNA 0.4 mg/ml
Relative to: random background probes
Reading: higher = stronger binding
All sequences stand within: GCCTAGCAC … GTCTTGATTCGCTTGACGCTGCTG
Target sequence (chain): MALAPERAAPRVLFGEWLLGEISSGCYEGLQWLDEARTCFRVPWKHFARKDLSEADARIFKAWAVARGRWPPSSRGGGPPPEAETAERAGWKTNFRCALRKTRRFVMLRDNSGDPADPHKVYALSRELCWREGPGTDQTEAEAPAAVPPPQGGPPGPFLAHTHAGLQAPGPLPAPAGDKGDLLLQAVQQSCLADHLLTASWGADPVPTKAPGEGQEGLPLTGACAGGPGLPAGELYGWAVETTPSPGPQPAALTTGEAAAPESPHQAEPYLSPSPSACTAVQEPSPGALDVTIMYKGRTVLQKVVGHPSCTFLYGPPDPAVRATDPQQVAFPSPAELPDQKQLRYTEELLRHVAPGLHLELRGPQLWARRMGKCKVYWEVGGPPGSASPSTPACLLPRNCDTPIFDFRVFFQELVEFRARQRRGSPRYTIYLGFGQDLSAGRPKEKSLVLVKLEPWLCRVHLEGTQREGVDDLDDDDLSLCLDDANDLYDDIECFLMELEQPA
| Strand | log fluorescence [z-score] |
| --- | --- |
| GACGGTTTCGGATCCGGGACGTGCTAG | 8.28 |
| GACGGACTGGACTATCTGGACGTGCTA | -0.637 |
| GACGGTTTCCGTCTCGGGACGTGCTAG | 2.2 |
| GACGGACTGCTATTGCTGACGTGCTAG | -0.801 |
| GACGCTTTCGGTTCCGGGACGTGCTAG | 3.66 |
| TCAGTTCTCTTTTATTTACTGTGCTAG | 2.73 |
| GACGAACTGAGACTGGAGATGTGCTAG | -0.145 |
| TTAGATTTCAGGACTGGATTAGTGCTA | 0.196 |
| TTAGGTTTCCTACTGCTCTAGTGCTAG | 1.21 |
| TGAGGTTTCCTTATCCTTTAGTGCTAG | 2.09 |
| TTAGATATCAGTTTCGACTAGTGCTAG | 3.75 |
| TTCTCTATTGCTTTCTCTTTGTGCTAG | 1.82 |
| TCATGCCTCATCTTGCAGACTGTGCTA | 0.441 |
| GGCTTGACGTCATCCCCTTGGTGCTAG | -0.404 |
| TCAACCATCCTGTGTCTTACTGTGCTA | -0.378 |
| TTAGGTCTCTTACTGCTTTAGTGCTAG | 0.228 |
| TCAAGCCTCAGTCCTCACACTGTGCTA | -0.101 |

Block 4
Target: RNA binding protein fox-1 homolog 2, RRM domain, GST-SBP tag (RBFOX2, Homo sapiens, UniProt O43251-10, residues 100-194)
Technique: RNA Bind-n-Seq
Form: RNA
Medium: in vitro
Concentration: 365 nM
Setting: natural RNA segment, single round, ends assumed
Relative to: no-protein control
Reading: higher = stronger binding
All sequences stand within: GGGAGUUCUACAGUCCGACGAUC … UGGAAUUCUCGGGUGCCAA
Residues (chain): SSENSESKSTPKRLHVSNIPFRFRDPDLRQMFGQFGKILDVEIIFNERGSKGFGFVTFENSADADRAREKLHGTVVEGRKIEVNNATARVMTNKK
| Strand | RBNS enrichment (R) |
| --- | --- |
| AUUCCAGCCCUCCUUGAGCUCACUACUUGACCAGACUGGGUAAUGCAUCACCUCUUCUCAUCAGUGGUCAGGAGAAGUGCAGCUAGAAAGUGGCCCACACAAGCCGUCUG | 0.994 |
| GCCUUACACGCCAGGCAAGUGUGACCACUGAGCUAGGCUCCCGCCCCCUUUACUUUUUGAAGCCAUACAAUGGAUGUCUAUAUGUUGCCUUUUUGAAGAUUAGGUGGUUU | 0.422 |
| AUCAUUGCCAUCGUGUGCUUGUUUCAUCCAGUGUUAUGCACUUUCCACAGUUGGACAUGGUGUUAGUAUAGCCAGACGGGUUUCAUUAUUAUUUCUCUUUGCUUUCUCAA | 0.825 |
| UCACCCCGGAUGCCCGGGACCUUGCCAAAAAGUUUCUGAAGCGGAACCCCACUCAGCGAAUUGGGGGUGGCCUGGGAGAUGCUGCUGAUGUCCAGAGGCACCCCUUUUUC | 0.398 |
| GGUUUUUGGUUUGGAGACAUCCAAAGCCUGAAGCCAGGUGGGUGUGGGCAGGGGCUGCAUUUUAUGAAACUGCCCAGCAAGCUGCGCUCCCUGGGGCCCCAGGAUCCACC | 0.491 |
| UUCAUAUACAGGAUAGCCUAAUUUUAUUUGUUUAAAUAUGCUUAAUAUGCCCAAGAUUGCAAAUGCAUCCAGUCAGUAAUACCACUGUCUGUAUGUGGAAGACAUGUUCC | 0.434 |
| UUUAUUUGCAGGACUAGAAUAAAAAGUUUAAACAUUACAGUAUUUCUGAGCAAACAAAUGUGCUCCAUUCUUUUCCUCCAUGCUCCUAGCGCAGAAUGUUUUCUUGCAGA | 0.822 |
| CAAGAAAACUACCUGGUGAUGCAAUUUUUUUUUUUAAUUUAACUUUAAAAUAAAUGCUGCAUUUGGUAAAGCUGGCAGUGGAACCAGUUGGAUGACCCAGCUCCUGUCUC | 0.278 |
| CAGCUACUUGGAAUUGGAAAUCGCCUGAACCCAGGAGGCGGAGGUUGCAGGGAGGGAGACUGCACCACUGCACUUCAGCCUGGGUGACAGAGGGAGACUCUGUCUUAAAA | 0.647 |
| CCUUGCAGAGCAGGAAGUUUAGCCAGGCUCGAGUGUAUCCCCUCCAGCCCUGGCAAAGGGCUUCUGCUCACCACAGAUCUAUAGCCAGUCUGAAUAGAGGAAGAGAGAAC | 0.221 |
| AUCUGAAUAGUGUGCUGGCGGGAGUGGUUUGUCGGAGCAGCCACACUGAUUCGGUGUUUUUGCAGUGCAUUCAACUUCUACAGAAGUUAACAUAUAAUGUCAAAAUUUUC | 0.742 |
| AAUAAUUCACAGAUUAUAGCUUAUUUUUAAUUAAUUUAUUUAUUUUGAAACAGUUUCACUGUGUCUGCCUGACUGGUCUGAAACUCACUAAGUAAACCAGGCUAGUUUCA | 0.448 |

Block 5
Target: ATF5, bZIP domain (human)
Technique: DHFR protein complementation
Medium: yeast
Setting: single substitutions, most at no-binding floor
Relative to: wild-type JUN-FOS pair
Reading: higher = stronger binding
Starting sequence: JUN, bZIP domain (human); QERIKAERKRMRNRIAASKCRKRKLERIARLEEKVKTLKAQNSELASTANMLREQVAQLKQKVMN; partner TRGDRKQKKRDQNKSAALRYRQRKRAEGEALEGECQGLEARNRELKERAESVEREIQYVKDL
| Change | binding fitness |
| --- | --- |
| I28E | -1.32 natural log |
| Q41T | -1.52 natural log |
| V56G | -1.46 natural log |
| A29S | -1.37 natural log |
| N42M | -1.37 natural log |
| M51L | -1.29 natural log |
| R53H | -1.49 natural log |
| E44L | -1.45 natural log |
| E54R | -1.35 natural log |
| R30E | -1.16 natural log |
| A46H | -1.39 natural log |
| A57V | -1.52 natural log |
| T37W | -1.44 natural log |
| L31M | -1.65 natural log |
| K39M | -1.46 natural log |

Single results of other studies
| Molecule | target | assay | system | setting | how to read | quantity | result |
| --- | --- | --- | --- | --- | --- | --- | --- |
| PhoQ, residues 284 288 289 292 302 303 GASLAW | PhoP, residues 12 14 15 18 19 LWHVM (Escherichia coli, UniProt P23836) | Sort-seq, item: YFP reporter | E. coli | PhoQ-PhoP variant library, with: 10 µM Mg2+ | relative to: high Mg2+ state, higher = stronger signaling | fold induction | 10.6 |

Some of these lines once more (block 1):
| Change | relative binding score |
| --- | --- |
| H122K | 9.87% |
| N165R | -0.166% |
| F47I | 7.82% |
| C60H | 9.44% |
| S11A | 82.8% |
| R99G | 38.7% |
| E139R | 1.28% |
| I133D | 110% |
| L91C | 48.1% |
| W134K | 59.5% |
